Measured values collected from several papers.
Parts stem from different laboratories: compare values within a part only. Positions count from the first letter of the parent shown.
UniProt O94804, sequence (whole entry, looked up): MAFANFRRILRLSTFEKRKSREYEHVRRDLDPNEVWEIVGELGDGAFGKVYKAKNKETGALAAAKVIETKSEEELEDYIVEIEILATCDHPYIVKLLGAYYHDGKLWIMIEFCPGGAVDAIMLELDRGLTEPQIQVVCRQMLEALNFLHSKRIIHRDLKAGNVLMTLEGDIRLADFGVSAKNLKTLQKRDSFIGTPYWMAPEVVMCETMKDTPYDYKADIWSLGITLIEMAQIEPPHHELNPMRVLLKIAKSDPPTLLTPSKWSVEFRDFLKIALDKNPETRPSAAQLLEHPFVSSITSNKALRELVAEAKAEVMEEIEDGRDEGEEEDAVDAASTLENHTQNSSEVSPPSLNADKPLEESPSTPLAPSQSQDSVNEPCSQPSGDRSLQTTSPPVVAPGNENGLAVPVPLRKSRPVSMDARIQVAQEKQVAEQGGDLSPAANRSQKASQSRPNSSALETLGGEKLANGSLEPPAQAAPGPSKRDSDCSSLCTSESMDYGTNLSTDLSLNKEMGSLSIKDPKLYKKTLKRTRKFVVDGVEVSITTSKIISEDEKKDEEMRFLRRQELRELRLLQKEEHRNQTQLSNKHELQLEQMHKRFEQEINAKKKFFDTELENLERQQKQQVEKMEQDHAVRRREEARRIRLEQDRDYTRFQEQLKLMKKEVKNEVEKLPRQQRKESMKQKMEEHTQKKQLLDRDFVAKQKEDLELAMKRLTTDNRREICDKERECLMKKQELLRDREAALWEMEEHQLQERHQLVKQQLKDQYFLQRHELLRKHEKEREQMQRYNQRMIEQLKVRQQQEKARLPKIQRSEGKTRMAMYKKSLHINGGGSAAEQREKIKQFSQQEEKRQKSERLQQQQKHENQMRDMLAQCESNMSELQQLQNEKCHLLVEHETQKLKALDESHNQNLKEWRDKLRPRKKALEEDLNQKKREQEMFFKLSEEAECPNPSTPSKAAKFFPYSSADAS
UniProt Q86Y07, sequence (whole entry, looked up): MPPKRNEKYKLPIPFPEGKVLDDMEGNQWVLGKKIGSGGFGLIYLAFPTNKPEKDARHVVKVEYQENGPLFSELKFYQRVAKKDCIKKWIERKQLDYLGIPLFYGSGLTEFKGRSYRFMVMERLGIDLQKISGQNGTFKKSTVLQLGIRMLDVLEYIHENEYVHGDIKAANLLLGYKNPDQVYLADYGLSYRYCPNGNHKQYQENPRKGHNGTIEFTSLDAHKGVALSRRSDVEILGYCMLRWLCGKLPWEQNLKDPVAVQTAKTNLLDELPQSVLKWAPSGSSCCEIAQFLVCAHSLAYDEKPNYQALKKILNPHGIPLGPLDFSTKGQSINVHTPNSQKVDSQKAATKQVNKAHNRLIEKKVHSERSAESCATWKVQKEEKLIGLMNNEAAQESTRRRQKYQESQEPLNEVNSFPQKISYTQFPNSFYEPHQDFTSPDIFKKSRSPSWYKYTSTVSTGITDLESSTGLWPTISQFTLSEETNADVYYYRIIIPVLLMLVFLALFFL
UniProt P19784, sequence (whole entry, looked up): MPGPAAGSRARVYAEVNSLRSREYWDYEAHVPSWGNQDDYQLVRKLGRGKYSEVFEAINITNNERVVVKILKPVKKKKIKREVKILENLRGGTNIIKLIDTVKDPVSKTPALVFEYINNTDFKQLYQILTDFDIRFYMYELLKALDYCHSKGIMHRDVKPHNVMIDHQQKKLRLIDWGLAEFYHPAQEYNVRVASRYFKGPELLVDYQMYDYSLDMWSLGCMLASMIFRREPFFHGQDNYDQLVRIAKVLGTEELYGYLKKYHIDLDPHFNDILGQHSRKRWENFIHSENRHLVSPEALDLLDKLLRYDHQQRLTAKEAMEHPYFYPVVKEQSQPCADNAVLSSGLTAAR
UniProt O43283, sequence (whole entry, looked up): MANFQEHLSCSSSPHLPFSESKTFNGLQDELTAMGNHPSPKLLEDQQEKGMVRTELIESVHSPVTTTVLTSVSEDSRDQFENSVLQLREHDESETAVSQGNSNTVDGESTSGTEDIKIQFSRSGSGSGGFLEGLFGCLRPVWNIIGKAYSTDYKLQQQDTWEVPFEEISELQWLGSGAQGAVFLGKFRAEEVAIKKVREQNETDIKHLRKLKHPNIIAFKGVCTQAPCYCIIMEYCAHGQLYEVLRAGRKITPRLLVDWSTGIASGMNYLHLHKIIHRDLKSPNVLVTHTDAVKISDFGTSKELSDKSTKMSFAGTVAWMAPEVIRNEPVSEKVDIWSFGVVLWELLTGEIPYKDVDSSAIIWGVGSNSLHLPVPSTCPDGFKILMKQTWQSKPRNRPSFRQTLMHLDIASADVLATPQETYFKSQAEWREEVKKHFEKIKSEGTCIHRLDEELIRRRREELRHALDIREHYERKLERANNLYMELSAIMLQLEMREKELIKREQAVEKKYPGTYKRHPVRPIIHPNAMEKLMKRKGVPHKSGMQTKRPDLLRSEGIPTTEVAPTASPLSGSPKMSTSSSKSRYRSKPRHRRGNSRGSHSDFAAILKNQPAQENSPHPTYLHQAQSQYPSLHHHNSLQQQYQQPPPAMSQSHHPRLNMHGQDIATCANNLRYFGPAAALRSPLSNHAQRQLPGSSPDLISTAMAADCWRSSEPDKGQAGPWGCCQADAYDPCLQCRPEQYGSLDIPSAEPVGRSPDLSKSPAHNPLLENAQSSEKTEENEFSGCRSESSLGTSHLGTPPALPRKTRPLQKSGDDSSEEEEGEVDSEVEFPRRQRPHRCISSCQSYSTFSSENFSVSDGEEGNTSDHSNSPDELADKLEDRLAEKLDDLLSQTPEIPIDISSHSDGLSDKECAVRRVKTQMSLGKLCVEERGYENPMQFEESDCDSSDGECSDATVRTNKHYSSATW
UniProt Q15375, sequence (whole entry, looked up): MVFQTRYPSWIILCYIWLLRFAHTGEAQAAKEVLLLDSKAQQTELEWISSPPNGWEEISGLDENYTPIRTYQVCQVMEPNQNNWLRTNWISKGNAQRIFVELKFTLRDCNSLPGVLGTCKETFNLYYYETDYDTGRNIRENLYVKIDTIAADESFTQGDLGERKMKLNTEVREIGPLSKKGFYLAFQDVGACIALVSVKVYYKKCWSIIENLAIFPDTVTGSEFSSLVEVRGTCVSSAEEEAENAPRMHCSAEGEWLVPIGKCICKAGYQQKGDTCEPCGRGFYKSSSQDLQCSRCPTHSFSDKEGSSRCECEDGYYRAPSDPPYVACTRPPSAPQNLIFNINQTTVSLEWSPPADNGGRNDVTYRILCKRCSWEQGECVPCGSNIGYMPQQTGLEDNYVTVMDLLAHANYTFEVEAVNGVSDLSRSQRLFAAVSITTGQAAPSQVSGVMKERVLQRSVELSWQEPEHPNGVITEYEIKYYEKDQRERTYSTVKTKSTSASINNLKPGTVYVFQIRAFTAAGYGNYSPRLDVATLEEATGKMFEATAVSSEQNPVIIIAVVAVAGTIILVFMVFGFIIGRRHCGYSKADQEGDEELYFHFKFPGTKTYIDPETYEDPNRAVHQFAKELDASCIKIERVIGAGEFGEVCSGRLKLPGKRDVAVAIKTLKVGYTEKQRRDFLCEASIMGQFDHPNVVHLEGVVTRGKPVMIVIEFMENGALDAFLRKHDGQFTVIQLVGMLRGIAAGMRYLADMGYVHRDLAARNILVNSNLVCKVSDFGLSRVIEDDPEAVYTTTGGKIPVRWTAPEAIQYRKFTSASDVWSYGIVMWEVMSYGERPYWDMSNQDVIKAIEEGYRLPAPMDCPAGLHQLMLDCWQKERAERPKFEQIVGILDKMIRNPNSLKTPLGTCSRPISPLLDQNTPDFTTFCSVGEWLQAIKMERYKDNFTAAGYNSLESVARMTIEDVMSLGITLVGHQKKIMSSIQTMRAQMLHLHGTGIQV
UniProt Q8TF76, sequence (whole entry, looked up): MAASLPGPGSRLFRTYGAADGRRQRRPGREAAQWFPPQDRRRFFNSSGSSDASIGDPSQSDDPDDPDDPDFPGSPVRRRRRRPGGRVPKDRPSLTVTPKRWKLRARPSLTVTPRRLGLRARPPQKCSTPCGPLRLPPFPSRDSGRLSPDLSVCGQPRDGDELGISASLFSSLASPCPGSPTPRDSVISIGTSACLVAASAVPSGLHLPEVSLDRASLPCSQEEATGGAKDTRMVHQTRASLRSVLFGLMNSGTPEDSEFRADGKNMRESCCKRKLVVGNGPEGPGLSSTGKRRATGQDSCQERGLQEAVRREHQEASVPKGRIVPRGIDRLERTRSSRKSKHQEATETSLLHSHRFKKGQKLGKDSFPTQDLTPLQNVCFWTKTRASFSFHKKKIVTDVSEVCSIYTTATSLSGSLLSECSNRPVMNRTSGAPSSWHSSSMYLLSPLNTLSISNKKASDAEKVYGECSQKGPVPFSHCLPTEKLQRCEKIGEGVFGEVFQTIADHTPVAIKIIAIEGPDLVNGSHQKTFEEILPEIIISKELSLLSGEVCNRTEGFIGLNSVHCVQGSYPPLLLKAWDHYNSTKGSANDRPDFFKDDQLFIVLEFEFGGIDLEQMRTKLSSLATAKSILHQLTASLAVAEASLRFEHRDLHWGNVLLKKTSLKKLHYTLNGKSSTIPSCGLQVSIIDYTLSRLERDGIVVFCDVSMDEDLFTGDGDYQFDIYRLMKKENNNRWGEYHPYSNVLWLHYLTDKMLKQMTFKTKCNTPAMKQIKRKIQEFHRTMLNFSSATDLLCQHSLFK

Block 1
Compound: O=c1nc(-c2ccccn2)sc2ccccc12
Technique: competition with immobilised ligand
Tested at: 1 µM
target	observed	remaining binding [%]
GSK3B (Homo sapiens, UniProt P49841)	cell-free assay	74
CDK13 (Homo sapiens, UniProt Q14004)	binding	75
CLK3 (Homo sapiens, UniProt P49761)	binding	96
MAP2K2 (Homo sapiens, UniProt P36507)	binding	89
EGFR (Homo sapiens, UniProt P00533, del746-750)	cell-free assay	100
CSNK2A2 (Homo sapiens, UniProt P19784)	cell-free assay	92
MARK4 (Homo sapiens, UniProt Q96L34)	binding	100
VRK2 (Homo sapiens, UniProt Q86Y07)	binding	74
HASPIN (Homo sapiens, UniProt Q8TF76)	cell-free assay	100
MAP3K13 (Homo sapiens, UniProt O43283)	binding	100
EGFR (Homo sapiens, UniProt P00533, del747-750/T751S)	cell-free assay	74
STK10 (Homo sapiens, UniProt O94804)	binding	99
EPHA7 (Homo sapiens, UniProt Q15375)	cell-free assay	80
CAMK1G (Homo sapiens, UniProt Q96NX5)	binding	100

Block 2
Target: CCNA1, cyclin fold, Cln2 fusion (human)
Technique: yeast growth competition, sequencing
Matrix: yeast
Setting: strong parent motif
Baseline: not given
Reading: higher = stronger binding
Starting sequence: E2F1 docking peptide (human); PPVKRRLDFETDH
Substitution	normalised enrichment score
PPRKRRLDFETDH [V3R]	0.812
PEVKRRLDFETDH [P2E]	1.44
PPVKRRLDFELDH [T11L]	1.51
PPVKRRLDFITDH [E10I]	1.42
PPVKRRLDFERDH [T11R]	1.43
PPVKRRLDYETDH [F9Y]	0.923
PPVKRRLDFETEH [D12E]	1.67
PPPKRRLDFETDH [V3P]	1.75

Block 3
Target: FOXO3, forkhead domain (mouse, UniProt Q9WVH4, residues 31-263)
UniProt Q9WVH4, sequence (31-263, looked up): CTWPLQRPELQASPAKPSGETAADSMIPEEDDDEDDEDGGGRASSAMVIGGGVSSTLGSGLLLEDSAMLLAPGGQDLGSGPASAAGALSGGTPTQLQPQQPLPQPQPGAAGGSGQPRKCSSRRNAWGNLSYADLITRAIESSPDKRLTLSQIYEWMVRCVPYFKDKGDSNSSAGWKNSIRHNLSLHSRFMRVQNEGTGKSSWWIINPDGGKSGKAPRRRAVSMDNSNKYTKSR
Technique: protein-binding microarray
Form: hairpin DNA
Matrix: in vitro
Tested at: not given
Setting: whole hairpin DNA, median over replicate spots
Baseline: not given
Reading: higher = stronger binding
Shared flanks, not repeated: GAGGCCATG … CATGGCCTCACACTC
Sequence	median fluorescence
CAAATAACGCCTCCTGGCGTTATTTG	4110 a.u.
TAACCGACGCCTCCTGGCGTCGGTTA (5mC at 14)	4210 a.u.
TAACCACGGCCTCCTGGCCGTGGTTA	4040 a.u.
TAAACAGCGCCTCCTGGCGCTGTTTA	5150 a.u.
GAACCAACGCCTCCTGGCGTTGGTTC	4410 a.u.
TAAACAACGCCTCCTGGCGTTGTTTA	5720 a.u.
TAACCATCGCCTCCTGGCGATGGTTA	3910 a.u.
TAACCAAGGCCTCCTGGCCTTGGTTA (5mC at 28)	3720 a.u.

Other studies, line by line
Compound	host	matrix	tested at	time	quantity	value
CCOc1cccc(CNC(=O)c2c(OC)cc(=O)n3c2CCCC3)c1	mouse	microsomes or S9	2 µM	0.5 h	remaining compound	1.49%
